Assay results gathered from unrelated publications.
Numbered parts are unrelated; each lists some results of a single study. Positions count from the first letter of the parent shown.

Set 1
Target: POU domain, class 5, transcription factor 1, POU domain (Pou5f1, Mus musculus, UniProt P20263, residues 131-289)
UniProt P20263, sequence (131-289, looked up): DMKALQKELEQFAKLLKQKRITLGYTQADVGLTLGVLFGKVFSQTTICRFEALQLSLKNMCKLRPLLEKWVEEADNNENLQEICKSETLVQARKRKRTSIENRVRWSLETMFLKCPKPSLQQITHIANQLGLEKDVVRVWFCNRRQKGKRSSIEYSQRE
Method: Spec-seq
Form: double-stranded DNA, one strand shown
Sample: in vitro
Concentration: not given
Setting: whole probe, mean of replicates
Baseline: not given
Direction: lower = stronger binding
All sequences stand within: GAGTCGTCTCGTCAGCAC … CCGTAGAGCACTCAGGTC
Sequence	relative binding energy [ln ratio]
ATGGACAT	0.438
ATGCGGGT	0.455
ATGCAATT	-0.679
ATGCCACG	0.562
ATGCGAAA	0.0514
CGCATAAT	-1.11
ATCCCAAT	0.415
TATTTAAT	-0.323
ATACATAT	-1.33
ATGCCGCC	1.02
ATGCCTCT	0.758
ATGCAGCC	0.179
ATCCTCAT	0.814
ATTTAGAT	-0.368
ATCCGAAT	-0.114
CTGGTAAT	0.767
GGGCTAAT	0.768
CAATTAAT	-0.155
ATGCAAGC	-0.154
TTGATAAT	0.156
ATCAGCAT	-1.08
GCGGTAAT	0.581
TCCCTAAT	0.788
GGACTAAT	0.472
ATAAGCAT	-0.42

Set 2
Target: Histone acetyltransferase KAT6A, both winged helices, GST fusion (KAT6A, Homo sapiens, UniProt Q92794, residues 1-181)
Method: protein binding microarray
Form: double-stranded DNA, one strand shown
Sample: in vitro
Concentration: not given
Setting: 8-mer, flanks averaged, mean of 2 arrays, mostly near background
Baseline: not given
Direction: higher = stronger binding
Construct (chain): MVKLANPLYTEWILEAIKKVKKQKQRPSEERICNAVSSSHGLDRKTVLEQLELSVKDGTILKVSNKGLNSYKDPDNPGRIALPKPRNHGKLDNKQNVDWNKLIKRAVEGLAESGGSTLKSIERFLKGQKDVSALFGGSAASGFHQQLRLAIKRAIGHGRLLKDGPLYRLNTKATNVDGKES
Sequence	E-score
AGACCACT	-0.254
TAGGGCGA	-0.1
ACAGCCTC	-0.116
AACTATAT	-0.0414
CCCTACGA	-0.175
AAGTTTGT	-0.0452
AATGAGAT	-0.145
GCGACTCA	-0.0183
AGATGTAG	-0.181
CACGCCTG	-0.0908
GTCCGGTA	0.159
ATGGCCCC	-0.0594
AGTGTGAG	-0.241
CGGTATCC	0.196
GGCGGGAA	0.229
ATGTAGGC	-0.0486
ACCCTCGC	0.0448
AAGAATGT	-0.136
ATTGCATG	-0.121
CAACCTTG	0.126
ACGTTAAC	-0.057

Set 3
Target: RNA binding protein fox-1 homolog 2, RRM domain, GST-SBP tag (RBFOX2, Homo sapiens, UniProt O43251-10, residues 100-194)
Method: RNA Bind-n-Seq
Form: RNA
Sample: in vitro
Concentration: 365 nM
Setting: natural RNA segment, single round, ends assumed
Baseline: no-protein control
Direction: higher = stronger binding
All sequences stand within: GGGAGUUCUACAGUCCGACGAUC … UGGAAUUCUCGGGUGCCAA
Construct (chain): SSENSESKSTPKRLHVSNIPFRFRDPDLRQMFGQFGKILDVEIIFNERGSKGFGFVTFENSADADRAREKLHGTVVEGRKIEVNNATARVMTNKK
Sequence	RBNS enrichment (R)
AUGAAACGUGAUGAACGCACCUUAAUAAAUCCAGAUAUUAAAGUUGUAGACUUUGGUAGUGCAACAUAUGAUGACGAACAUCACAGUACAUUGGUAUCUACAAGACAUUA	0.316
UCAGUGUUGGAGCUCUCUAUGAGGCCUUCUAUCCUUUGGCCCAUGCCUUGGAUGGAGACAGACACUACUGGAGAAGGGGGCUGCCUUCCCCAGAAAGAAUACUACCUAAA	0.237
CUGAUUUCCUCAAAACGAAGUGGAAUUUACUACUGUUGUCAGUAUCGGUGUUUUGAAUUGGUGCCUGCCUAUAGAGAUAUAUUCACAGUUCAAAAGUCAGGUGCUGAGAG	0.875
CCAAUCAAACCUACUUUUUCCAUACUCUGUGCAUAUUUUUUGUGAAGUUAUACACAUUGAAGACCCUAAAAAUCCCAGUCCAUCAUUCAGCUUACCUCUGCGAACUUCUA	1.17
UUUGUAACCCCUUCAGCCUAGCCUCUCUGCCCAUUUAUUUCCAACCCCAACAGACACUGACAGGGUCCAUGGAAUUCUUCGGGAAAUCCUCCAAGGACUCUUGUCAGCUG	0.518
ACUUUUUAAAUCUUAGAGAGAUUCCUACAGAUCUAUAAAGCAUGGAGCCAUUCCUGUAGUGAAGGGGGGGUUAUUAUACCCCAGGGCUUCAGAACUCACAGGACAGGGAU	1.17
UGCAGUUCAUUUCCCACUAACCAUGCAGGUGCACAUCACGGAAAUACCGGUUUAACUACUAGUGUGUUACUGCCUCAUUUAUCUACAUUAACUAGAACAGAAUGCUUACA	1.02
CACUUUGGGUGGGUGAGGCAGGCGGAUCACUUGAAGCCAGGACUUCAAGACCAGCUUGGCCAACAUGGUGAAACCUCAUCUCUACUAAAAAUACAAAAAUUAGCCAAGUG	0.365

Set 4
Target: ABI1, truncated, D143A, DHFR fusion (Arabidopsis thaliana)
Method: DHFR PCA, deep sequencing
Sample: yeast
Setting: methotrexate growth selection, single substitutions
Together with: (+)-ABA 4.8 µM
Baseline: wild-type fitted maximum
Direction: higher = stronger binding
Starting sequence: PYL1, truncated, DHFR fusion (Arabidopsis thaliana); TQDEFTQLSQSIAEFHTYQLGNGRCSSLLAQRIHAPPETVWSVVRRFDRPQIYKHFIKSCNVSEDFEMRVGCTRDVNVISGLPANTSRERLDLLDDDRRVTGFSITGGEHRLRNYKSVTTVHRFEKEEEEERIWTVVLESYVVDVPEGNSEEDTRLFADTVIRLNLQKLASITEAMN
Variant	relative binding score [%]
L82I	66.1
N77A	79.1
E89K	11.1
H16D	-15.1
P83E	10.2
L91P	14.2
S87R	37.3
T73A	31.6
T106Q	49.2
I33K	-14.7
M176A	64.9
D159Q	-5.14
T6S	78.8
V142M	56.5
K126D	90.3
F5C	65.3
L169R	-10.3
V137A	7.42
E129N	73.2
I172L	65
Q19K	81.3
V78G	7.41
T6K	80.4

Set 5
Target: Sal-like protein 4, full length isoform A (SALL4, Homo sapiens, UniProt Q9UJQ4, residues 1-1053)
UniProt Q9UJQ4, sequence (whole entry, looked up): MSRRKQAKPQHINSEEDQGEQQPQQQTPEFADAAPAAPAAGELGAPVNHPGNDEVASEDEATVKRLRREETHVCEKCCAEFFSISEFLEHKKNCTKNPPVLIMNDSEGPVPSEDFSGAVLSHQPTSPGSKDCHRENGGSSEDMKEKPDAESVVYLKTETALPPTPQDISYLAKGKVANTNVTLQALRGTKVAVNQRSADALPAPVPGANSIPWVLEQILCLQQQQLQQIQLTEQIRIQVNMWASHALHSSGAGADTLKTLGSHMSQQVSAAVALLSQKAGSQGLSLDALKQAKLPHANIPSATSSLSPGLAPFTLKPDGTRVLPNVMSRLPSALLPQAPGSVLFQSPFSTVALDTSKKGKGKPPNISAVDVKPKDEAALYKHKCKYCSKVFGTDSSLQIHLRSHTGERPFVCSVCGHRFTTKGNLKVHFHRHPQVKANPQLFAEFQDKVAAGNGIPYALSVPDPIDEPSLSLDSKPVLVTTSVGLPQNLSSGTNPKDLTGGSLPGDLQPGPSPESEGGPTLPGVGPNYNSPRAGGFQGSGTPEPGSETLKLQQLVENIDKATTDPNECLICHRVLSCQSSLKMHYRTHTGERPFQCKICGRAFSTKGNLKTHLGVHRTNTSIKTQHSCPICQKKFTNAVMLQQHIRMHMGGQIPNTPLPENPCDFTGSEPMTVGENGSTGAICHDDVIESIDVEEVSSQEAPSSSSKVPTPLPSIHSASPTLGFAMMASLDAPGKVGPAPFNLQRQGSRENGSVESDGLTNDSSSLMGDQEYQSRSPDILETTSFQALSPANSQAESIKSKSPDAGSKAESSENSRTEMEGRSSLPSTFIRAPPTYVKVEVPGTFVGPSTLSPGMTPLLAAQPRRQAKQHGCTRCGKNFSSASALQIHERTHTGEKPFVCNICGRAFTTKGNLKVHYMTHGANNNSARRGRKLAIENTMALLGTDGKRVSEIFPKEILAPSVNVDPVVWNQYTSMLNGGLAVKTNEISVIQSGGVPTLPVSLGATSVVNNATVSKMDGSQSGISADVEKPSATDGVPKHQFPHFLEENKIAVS
Method: universal PBM
Form: double-stranded DNA, one strand shown
Sample: in vitro
Concentration: 600 nM
Setting: 8-mer, flanks averaged, mean of replicates
Direction: higher = stronger binding
Sequence	E-score
CATTGGAA	0.187
CATATTGG	0.208
ATCTTTTA	0.261
CCTATCTC	-0.0715
GTCTCCAC	-0.23
ATCTCAGC	-0.044
TCCCAGCA	-0.139
AGAACTCC	-0.137
GTAACTGA	0.0462
ACCAGCCC	-0.255
AACCGGTG	-0.229
GCTTACAC	-0.287
TACCCGTA	-0.0751
AACGCATC	-0.00655
AATTCCAC	0.181
CAGTCTCA	-0.0209
TGAAATCA	0.226
CCATTGGC	-0.261
AGTAAACT	0.26
AAAAAATC	0.304
GGGGGCCA	-0.358
CTCGCTAC	-0.191
TAGCCGCA	-0.252
AACTAAAC	0.11
CATACAGG	0.127

A few entries again (set 5):
Sequence	E-score
CCATTGGC	-0.261
AGTAAACT	0.26
AAAAAATC	0.304
GGGGGCCA	-0.358
CTCGCTAC	-0.191
TAGCCGCA	-0.252
AACTAAAC	0.11
